Measured values from different studies.
Each numbered part is a random draw from the data of one study; scales do not carry over between parts.
UniProt P10721, sequence (whole entry, unmodified, looked up): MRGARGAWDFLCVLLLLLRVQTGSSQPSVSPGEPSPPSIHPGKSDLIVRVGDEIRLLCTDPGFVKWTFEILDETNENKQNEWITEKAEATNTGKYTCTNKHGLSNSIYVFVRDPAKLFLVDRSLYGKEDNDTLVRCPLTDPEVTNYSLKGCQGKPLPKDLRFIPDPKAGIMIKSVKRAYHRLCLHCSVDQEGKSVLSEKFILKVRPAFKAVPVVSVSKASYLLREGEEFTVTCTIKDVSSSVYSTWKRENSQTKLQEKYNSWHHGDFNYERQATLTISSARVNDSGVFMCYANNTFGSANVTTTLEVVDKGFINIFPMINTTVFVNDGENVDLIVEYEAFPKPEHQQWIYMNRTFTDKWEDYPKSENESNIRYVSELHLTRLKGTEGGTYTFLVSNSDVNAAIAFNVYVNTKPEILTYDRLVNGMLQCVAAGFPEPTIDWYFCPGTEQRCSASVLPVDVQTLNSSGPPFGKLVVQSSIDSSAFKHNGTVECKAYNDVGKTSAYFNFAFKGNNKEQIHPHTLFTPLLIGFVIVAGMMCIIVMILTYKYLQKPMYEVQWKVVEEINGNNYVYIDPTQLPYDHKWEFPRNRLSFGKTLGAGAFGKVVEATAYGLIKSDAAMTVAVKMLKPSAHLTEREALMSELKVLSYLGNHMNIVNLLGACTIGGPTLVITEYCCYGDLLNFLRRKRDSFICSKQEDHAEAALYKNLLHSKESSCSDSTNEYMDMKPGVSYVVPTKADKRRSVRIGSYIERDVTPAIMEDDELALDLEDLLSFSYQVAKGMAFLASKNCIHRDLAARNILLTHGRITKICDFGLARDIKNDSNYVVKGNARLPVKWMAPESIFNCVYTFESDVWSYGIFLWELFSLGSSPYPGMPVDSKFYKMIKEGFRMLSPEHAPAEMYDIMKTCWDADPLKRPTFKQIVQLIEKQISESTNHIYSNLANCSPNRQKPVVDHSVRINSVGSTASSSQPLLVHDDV
UniProt O76039, sequence (whole entry, looked up): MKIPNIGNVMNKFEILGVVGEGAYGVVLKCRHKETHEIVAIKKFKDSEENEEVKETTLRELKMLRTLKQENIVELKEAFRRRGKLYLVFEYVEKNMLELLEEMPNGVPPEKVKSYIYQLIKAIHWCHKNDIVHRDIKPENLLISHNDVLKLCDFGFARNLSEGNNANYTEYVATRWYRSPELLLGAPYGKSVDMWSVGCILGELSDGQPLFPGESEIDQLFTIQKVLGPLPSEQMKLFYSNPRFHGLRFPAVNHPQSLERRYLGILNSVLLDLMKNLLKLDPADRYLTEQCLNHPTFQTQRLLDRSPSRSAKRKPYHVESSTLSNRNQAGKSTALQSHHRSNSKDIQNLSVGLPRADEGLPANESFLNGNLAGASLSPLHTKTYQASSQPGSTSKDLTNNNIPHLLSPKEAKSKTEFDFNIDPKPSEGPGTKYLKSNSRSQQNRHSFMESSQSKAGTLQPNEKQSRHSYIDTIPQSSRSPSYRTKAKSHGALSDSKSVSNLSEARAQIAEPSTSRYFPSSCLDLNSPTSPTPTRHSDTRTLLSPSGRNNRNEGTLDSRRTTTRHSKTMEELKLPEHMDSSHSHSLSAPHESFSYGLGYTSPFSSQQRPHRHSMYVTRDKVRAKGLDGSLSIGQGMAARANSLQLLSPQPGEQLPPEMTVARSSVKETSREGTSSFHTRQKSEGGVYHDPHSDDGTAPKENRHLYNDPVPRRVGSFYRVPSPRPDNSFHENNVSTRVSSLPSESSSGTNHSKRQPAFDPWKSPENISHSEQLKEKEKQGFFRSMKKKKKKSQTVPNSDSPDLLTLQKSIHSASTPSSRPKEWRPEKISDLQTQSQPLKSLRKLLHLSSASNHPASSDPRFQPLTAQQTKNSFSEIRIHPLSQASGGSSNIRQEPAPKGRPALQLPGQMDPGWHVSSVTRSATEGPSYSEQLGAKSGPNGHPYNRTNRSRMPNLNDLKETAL
UniProt Q08345, sequence (whole entry, looked up): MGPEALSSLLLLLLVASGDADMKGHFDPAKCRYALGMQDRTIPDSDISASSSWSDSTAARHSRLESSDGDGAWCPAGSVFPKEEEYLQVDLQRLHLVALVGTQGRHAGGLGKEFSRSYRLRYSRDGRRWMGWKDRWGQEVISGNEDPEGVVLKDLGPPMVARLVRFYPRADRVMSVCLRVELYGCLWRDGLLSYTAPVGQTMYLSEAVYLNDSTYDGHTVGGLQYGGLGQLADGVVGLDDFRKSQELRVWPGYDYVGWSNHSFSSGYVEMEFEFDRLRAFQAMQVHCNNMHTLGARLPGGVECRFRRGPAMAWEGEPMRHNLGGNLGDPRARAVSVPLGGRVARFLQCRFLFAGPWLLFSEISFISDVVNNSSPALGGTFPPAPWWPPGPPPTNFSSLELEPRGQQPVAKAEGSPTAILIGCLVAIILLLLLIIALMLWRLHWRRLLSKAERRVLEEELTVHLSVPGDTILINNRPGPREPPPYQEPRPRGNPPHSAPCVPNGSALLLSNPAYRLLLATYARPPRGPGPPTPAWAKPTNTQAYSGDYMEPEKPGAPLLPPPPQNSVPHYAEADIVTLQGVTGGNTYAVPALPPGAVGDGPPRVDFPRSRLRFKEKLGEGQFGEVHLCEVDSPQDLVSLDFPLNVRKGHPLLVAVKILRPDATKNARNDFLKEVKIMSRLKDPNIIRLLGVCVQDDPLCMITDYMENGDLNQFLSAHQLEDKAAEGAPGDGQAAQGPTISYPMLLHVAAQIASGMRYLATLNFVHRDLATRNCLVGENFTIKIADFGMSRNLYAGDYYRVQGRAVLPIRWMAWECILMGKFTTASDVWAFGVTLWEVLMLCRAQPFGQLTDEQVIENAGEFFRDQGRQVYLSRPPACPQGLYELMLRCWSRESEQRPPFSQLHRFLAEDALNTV
UniProt Q13188, sequence (whole entry, looked up): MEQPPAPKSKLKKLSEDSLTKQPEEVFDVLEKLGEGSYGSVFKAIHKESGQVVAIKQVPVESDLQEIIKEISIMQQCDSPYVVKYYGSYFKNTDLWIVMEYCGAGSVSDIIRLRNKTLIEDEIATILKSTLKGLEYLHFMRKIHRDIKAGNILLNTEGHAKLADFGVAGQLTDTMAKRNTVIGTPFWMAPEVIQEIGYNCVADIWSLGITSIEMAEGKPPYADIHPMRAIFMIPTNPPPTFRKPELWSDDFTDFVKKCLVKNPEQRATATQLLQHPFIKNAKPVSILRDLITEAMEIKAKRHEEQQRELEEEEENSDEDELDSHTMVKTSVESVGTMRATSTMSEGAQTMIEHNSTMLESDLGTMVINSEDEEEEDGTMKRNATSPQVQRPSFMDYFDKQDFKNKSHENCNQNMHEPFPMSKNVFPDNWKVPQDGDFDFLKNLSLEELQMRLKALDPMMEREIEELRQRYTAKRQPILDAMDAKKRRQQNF
UniProt Q9H3Y6, sequence (whole entry, looked up): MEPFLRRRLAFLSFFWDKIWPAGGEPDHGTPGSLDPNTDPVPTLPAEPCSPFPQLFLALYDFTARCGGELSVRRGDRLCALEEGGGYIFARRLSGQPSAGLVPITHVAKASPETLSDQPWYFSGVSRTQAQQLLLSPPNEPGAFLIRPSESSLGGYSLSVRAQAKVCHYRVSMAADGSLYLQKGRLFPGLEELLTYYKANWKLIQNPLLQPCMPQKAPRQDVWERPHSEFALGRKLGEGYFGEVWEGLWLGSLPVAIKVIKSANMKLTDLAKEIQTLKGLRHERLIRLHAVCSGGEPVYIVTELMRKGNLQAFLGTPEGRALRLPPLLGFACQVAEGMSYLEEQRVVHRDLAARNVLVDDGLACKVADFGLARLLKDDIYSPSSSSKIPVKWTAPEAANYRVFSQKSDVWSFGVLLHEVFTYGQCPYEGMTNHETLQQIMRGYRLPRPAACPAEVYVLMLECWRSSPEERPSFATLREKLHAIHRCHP

Set 1
Structure (SMILES): COc1cc(C(=O)N2CCC(N3CCN(C)CC3)CC2)ccc1Nc1ncc2c(n1)N(C)c1ccccc1C(=O)N2C
Technique: KINOMEscan
Tested at: 10 µM
Baseline: DMSO control
Reading: lower = stronger binding
target | binding
STK33 | 10%
RIOK3 | 85%
CSF1R | 98%
MTOR | 97%
LCK | 100%
PIP5K2B | 100%
NEK11 | 100%
DMPK2 | 100%
ROS1 | 12%
MAK | 72%
PIP5K1C | 96%
BMPR2 | 100%
PDPK1 | 100%

Set 2
SMILES: C[C@@]1(Cc2ccc(C#N)cc2)C(=O)N(c2cc(Cl)cc(Cl)c2)c2ncc(C(=O)NC3(c4nc(C5CCC5)no4)CC3)n21
Read-out: cell-free assay
Technique: competition with immobilised ligand
Tested at: 1 µM
target | remaining binding [%]
KIT (Homo sapiens, UniProt P10721, A829P) | 100
KIT (Homo sapiens, UniProt P10721) | 98
HIPK2 (Homo sapiens, UniProt Q9H2X6) | 100
TNK1 (Homo sapiens, UniProt Q13470) | 93
CDKL5 (Homo sapiens, UniProt O76039) | 100
STK4 (Homo sapiens, UniProt Q13043) | 92
MET (Homo sapiens, UniProt P08581) | 100
STK3 (Homo sapiens, UniProt Q13188) | 100
Ribosomal protein S6 kinase alpha-3, N-terminal kinase domain (RPS6KA3, Homo sapiens, UniProt P51812) | 100
SRMS (Homo sapiens, UniProt Q9H3Y6) | 100
BMX (Homo sapiens, UniProt P51813) | 40
DDR1 (Homo sapiens, UniProt Q08345) | 81
KIT (Homo sapiens, UniProt P10721, V559D/V654A) | 85
NTRK2 (Homo sapiens, UniProt Q16620) | 100

Set 3
Target: Eukaryotic initiation factor 4A-III (Homo sapiens, UniProt P38919)
UniProt P38919, sequence (whole entry, looked up): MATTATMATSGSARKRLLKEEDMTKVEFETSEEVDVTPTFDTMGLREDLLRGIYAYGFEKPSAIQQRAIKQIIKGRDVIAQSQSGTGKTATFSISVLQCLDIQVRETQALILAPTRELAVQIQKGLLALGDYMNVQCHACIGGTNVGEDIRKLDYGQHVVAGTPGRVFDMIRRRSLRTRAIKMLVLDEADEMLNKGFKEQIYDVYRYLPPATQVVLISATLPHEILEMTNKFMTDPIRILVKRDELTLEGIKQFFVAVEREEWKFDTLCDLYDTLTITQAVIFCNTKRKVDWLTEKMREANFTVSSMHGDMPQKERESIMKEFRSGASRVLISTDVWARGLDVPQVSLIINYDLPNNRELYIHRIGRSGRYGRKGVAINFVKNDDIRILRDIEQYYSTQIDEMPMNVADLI
Read-out: RNA clamping
Technique: fluorescence polarization
Tested at: concentration not given
Notes: mean of two replicates
Together with: FAM-labelled poly r(AG)8 RNA
Structure (SMILES) | fluorescence polarization change [mP]
COc1cc(OC)c2c(c1)O[C@@]1(c3ccc(Br)cc3)[C@H](c3ccccc3)c3c(nc(-c4ccccc4)[nH]c3=O)[C@@]21O | 11.1
C=CCN[C@@]12C(=O)[C@H](C(=O)OC)[C@@H](c3ccccc3)[C@]1(c1ccc(OC)cc1)Oc1cc(OC)cc(OC)c12 | 1.8
COc1cc(F)cc2c1[C@]1(O)[C@H](O)[C@H](C#N)[C@@H](c3ccccc3)[C@]1(c1ccc(Br)cc1)O2 | 29
COC(=O)[C@H]1C(=O)[C@@]2(NCCN(C)C)c3c(OC)cc(OC)cc3O[C@@]2(c2ccc(OC)cc2)[C@@H]1c1ccccc1 | 5.1
COc1ccc([C@]23Oc4cc(OC)cc(OC)c4[C@](O)(C2O)[C@H](c2c(F)c(F)c(F)c(F)c2F)[C@H]3c2ccccc2)cc1 (stereo partly shown) | 4.9
COC(=O)[C@H]1C(=O)[C@@]2(NN(C)C)c3c(OC)cc(OC)cc3O[C@@]2(c2ccc(OC)cc2)[C@@H]1c1ccccc1 | 5
COC(=O)[C@@H]1[C@@H](c2ccccc2)[C@]2(c3ccc(OC)cc3)Oc3cc(OC)cc(OC)c3[C@@]23NC(C2CCC2)=N[C@@]13O | 28.3
COC(=O)[C@@H]1[C@@H](c2ccccc2)[C@]2(c3ccc(OC)cc3)Oc3cc(OC)cc(OC)c3[C@@]23N=C2CCCCN2[C@@]13O | 22.3
COc1ccc([C@@]23Oc4cc(OC)cc(OC)c4[C@]2(O)c2nc(-c4cccc(OCc5ccccc5)c4)[nH]c(=O)c2[C@H]3c2ccccc2)cc1 | 1.6

Set 4
Target: Protein kinase C gamma type (PRKCG, Homo sapiens, UniProt P05129)
Read-out: enzyme activity
Mode: inhibitor
Tested at: 0.5 µM
Baseline: control
Compound | remaining activity [%]
COc1cc2ncc(-c3ccccc3)nc2cc1OC | 101
COc1ccc(Cl)cc1NC(=O)Nc1cc(C)nc2ccccc12 | 107
O=C(Nc1ccc(Cl)cc1)c1ccccc1NCc1ccncc1 | 102
CCN1/C(=C/C(C)=O)Sc2ccc(OC)cc21 | 75.4
Cc1nc(Nc2ncc(C(=O)Nc3c(C)cccc3Cl)s2)cc(N2CCN(CCO)CC2)n1 | 86.2
CS(=O)(=O)CCNCc1ccc(-c2ccc3ncnc(Nc4ccc(OCc5cccc(F)c5)c(Cl)c4)c3c2)o1 | 79.3
CCOc1cc2ncnc(Nc3cccc(Br)c3)c2cc1OCC | 83
CC(=O)O/N=C1/C(c2c(O)[nH]c3cc(Br)ccc23)=Nc2ccccc21 | 103
CC(C)[C@H](CO)Nc1nc(Nc2cccc(Cl)c2)c2ncn(C(C)C)c2n1 | 98.2
C[S+]([O-])c1ccc(-c2nc(-c3ccncc3)c(-c3ccc(F)cc3)[nH]2)cc1 (stereo not shown) | 90
Nc1[nH]nc2nnc(-c3c(-c4ccccc4)nn4ccccc34)cc12 | 103
CN(C)CCCn1cc(C2=C(c3c[nH]c4ccccc34)C(=O)NC2=O)c2ccccc21 | 17.6
Cn1cc(/C=C2\C(=O)Nc3ccc(S(N)(=O)=O)cc32)c2ccccc21 | 106
COc1ccc(-c2cnc3c(-c4ccsc4)cnn3c2)cc1 | 112
CC(C)c1nn(-c2c(Cl)cccc2Cl)c2nc(Cc3ccc(OCCO)cc3)[nH]c(=O)c12 | 81.1
O=c1cc(N2CCOCC2)oc2c1ccc1ccccc12 | 101
CCC(=O)Nc1ccc2ncnc(Nc3cccc(Br)c3)c2c1 | 102
Cn1cnc2cc3c(Nc4cccc(Br)c4)ncnc3cc21 | 93.9
Cc1ccc(NC(=O)c2ccc(CN3CCN(C)CC3)cc2)cc1Nc1nccc(-c2cccnc2)n1 | 91.6
COc1cc2ncnc(Nc3ccc(OCc4ccccc4)cc3)c2cc1OC | 98.5
COc1cc2ncnc(N3CCN(C(=O)Nc4ccc(Oc5ccccc5)cc4)CC3)c2cc1OC | 104
O=C1NC(=O)/C(=C/c2ccc3nccnc3c2)S1 | 105

Some of these lines once more (set 2):
target | remaining binding [%]
KIT (Homo sapiens, UniProt P10721, A829P) | 100
KIT (Homo sapiens, UniProt P10721) | 98
HIPK2 (Homo sapiens, UniProt Q9H2X6) | 100
TNK1 (Homo sapiens, UniProt Q13470) | 93
CDKL5 (Homo sapiens, UniProt O76039) | 100
STK4 (Homo sapiens, UniProt Q13043) | 92
MET (Homo sapiens, UniProt P08581) | 100
STK3 (Homo sapiens, UniProt Q13188) | 100
Ribosomal protein S6 kinase alpha-3, N-terminal kinase domain (RPS6KA3, Homo sapiens, UniProt P51812) | 100
